Measured values collected from several papers.
Protocols differ between the studies behind these lines. Values joined by “and” are separate records of one study, mostly repeats; a detail may differ. ± marks the error that the study gave.

SMILES | test | system | conditions | Cmax
Cc1ccccc1/N=N/c1ccc(/N=N/c2c(O)ccc3ccccc23)c(C)c1 |  | Sprague-Dawley rats both sexes, whole blood | oral, 50 mg/kg | 1300 ng/mL
CC(C)C[C@H](NC(=O)[C@H](CCCCN)NC(=O)CNC(=O)[C@H](CC(C)C)NC(=O)[C@@H](NC(=O)[C@@H]1CSSC[C@H](N)C(=O)N[C@@H](CO)C(=O)N[C@@H](CC(N)=O)C(=O)N[C@@H](CC(C)C)C(=O)N[C@@H](CO)C(=O)N[C@@H]([C@@H](C)O)C(=O)N1)C(C)C)C(=O)N[C@@H](CO)C(=O)N[C@@H](CCC(N)=O)C(=O)N[C@@H](CCC(=O)O)C(=O)N[C@@H](CC(C)C)C(=O)N[C@@H](Cc1c[nH]cn1)C(=O)N[C@@H](CCCCN)C(=O)N[C@@H](CC(C)C)C(=O)N[C@@H](CCC(N)=O)C(=O)N[C@H](C(=O)N[C@@H](Cc1ccc(O)cc1)C(=O)N1CCC[C@H]1C(=O)N[C@@H](CCCNC(=N)N)C(=O)N[C@H](C(=O)N[C@@H](CC(N)=O)C(=O)N[C@H](C(=O)NCC(=O)N[C@@H](CO)C(=O)NCC(=O)N[C@H](C(=O)N1CCC[C@H]1C(N)=O)[C@@H](C)O)[C@@H](C)O)[C@@H](C)O)[C@@H](C)O | ELISA | hairless male Sprague-Dawley rat, serum | subcutaneous, 3 µg, coating dissolved from microneedles | 8 ± 2.9 ng/mL
CN(Cc1ccc(/C=C/C(=O)Nc2ccccc2N)cc1)CC12CC3CC(CC(C3)C1)C2 | LC-MS/MS | rat, brain | 1 mg/kg | 315 nM
CCCCCCCOc1ccc(CC[C@](N)(CO)COP(=O)(O)O)cc1C(F)(F)F |  | rat Sprague-Dawley male, heart | oral, 1 mg/kg | 42 ng/g
Cn1cc(C(N)=O)c(NC2C3CC4CC2CC(O)(C4)C3)c2ccnc1-2 (stereo not drawn) |  | Japanese adults, moderate hepatic impairment, plasma | oral, 150 mg single dose | 110 ng/mL
N[C@@H](COc1ccccc1C(F)(F)F)c1ccccc1 |  | male Sprague-Dawley rat, serum | oral, 25 mg/kg | 258 ± 2 ng/mL
Cc1ncc2c(n1)CN(C(=O)Nc1nc(-c3cccs3)ccc1N)C2 |  | male Sprague-Dawley rats | oral, 30 mg/kg daily, day 14 | 1670 ± 184 ng/mL
COc1ccc(N2CCOCC2)c2sc(NC(=O)c3ccnc(CN4CCCC4)c3)nc12 |  | Wistar rat, plasma (total) | oral, 90 mg/kg/day, 14 days | 25400 ng/mL
Oc1ccc2ccccc2c1/N=N/c1ccc(/N=N/c2ccccc2)cc1 |  | Sprague-Dawley rats both sexes, whole blood | oral, 50 mg/kg | 349 ng/mL
Cc1cc2c(cc1C1(c3ncc(C(=O)O)cn3)CC1)C(C)(C)CCC2(C)C |  | rat Sprague-Dawley male, plasma | oral, 100 mg/kg, sesame oil | 25400 ng/mL
CC(C)CNC(=O)/C=C/CCc1ccc2c(c1)OCO2 |  | rat, sham-operated, plasma | oral, 50 mg/kg | 73.4 ± 36.2 ng/mL
Cc1noc(C)c1Cn1cc(N2C(=O)CN(Cc3cccc(O[C@@H]4O[C@H](C(=O)O)[C@@H](O)[C@H](O)[C@H]4O)c3)C2=O)cn1 |  | rat Sprague-Dawley male, plasma | oral, 100 mg/kg of parent drug | 9090 ng/mL
CC1(C)C2CCC1(C)C(OC(=O)/C=C/c1ccc(O)c(O)c1)C2 (stereo not drawn) |  | Sprague-Dawley rat, plasma | oral gavage, 30 mg/kg | 409 ± 92.9 ng/mL
CONC(=O)/C=C/c1cccc(S(=O)(=O)Nc2ccccc2)c1 |  | patients with moderate liver dysfunction, plasma | intravenous, 400 mg/m^2 belinostat, single 30 min infusion, cycle 1 day -7, mean | 3260 ng/mL
Cc1noc(C)c1Cn1cc(N2C(=O)CN(Cc3cccc(OS(=O)(=O)O)c3)C2=O)cn1 |  | rat Sprague-Dawley male, plasma | oral, 100 mg/kg of parent drug | 6110 ng/mL
O=C(c1ccccc1)c1cc(O)c(-c2cc(Cl)cc(Cl)c2)c(O)c1 |  | male Sprague-Dawley rat, plasma | intravenous, 5 mg/kg | 6230 ± 1670 ng/mL
COC(=O)/C=C/C(=O)c1ccc(OC)cc1 |  | Sprague-Dawley rat, both sexes, plasma | oral, 100 mg/kg | 290 ± 37.5 ng/mL
O=C(O)c1cccc(S(=O)(=O)Nc2ccccc2)c1 |  | patients with moderate liver dysfunction, plasma | intravenous, 400 mg/m^2 belinostat, single 30 min infusion, cycle 1 day -7, mean | 1820 ng/mL
CN1CCN(c2ccc(Nc3ncc(Cl)c(Nc4ccccc4P(C)(C)=O)n3)cc2Br)CC1 |  | Sprague-Dawley rat, male, plasma | oral, 25 mg/kg | 396 ng/mL and 372 ng/mL
CC/C=C\C/C=C\C/C=C\C/C=C\C/C=C\CCCCOC(CC)C(=O)O (stereo not drawn) |  | Wistar rat, male, portal vein plasma | oral, 100 mg/kg | 17600 ng/mL
COc1cc2oc(-c3ccc(O)cc3)cc(=O)c2c(O)c1[C@@H]1O[C@H](CO)[C@@H](O)[C@H](O)[C@H]1O[C@@H]1O[C@H](CO)[C@@H](O)[C@H](O)[C@H]1O |  | male Sprague-Dawley rat, PCPA-induced insomnia, plasma | oral, 6.8 g/kg | 40.1 ± 17.5 ng/mL
Cc1cc(O)c2c(c1)C(=O)c1cc(O)cc(O)c1C2=O.Cc1cc(O)c2c(c1)C(=O)c1cc(O)cc(O)c1C2=O.Cc1nc(C)c(C)nc1C |  | Sprague Dawley rat, plasma | oral, 100 mg/kg | 428 ± 134 ng/mL
C=C(c1ccc(C(=O)O)c(F)c1)c1cc2c(cc1C)C(C)(C)C=CC2(C)C |  | rat Sprague-Dawley male, plasma | oral, 100 mg/kg, sesame oil | 18600 ng/mL
CC(=O)[CH](C(C)=O)[Pt-2]1([S+](C)C)[O]C(C)=CC(C)=[O+]1 (stereo not drawn) | item: platinum | rat, plasma | intravenous, dose not given | 90200 ng/mL

Repeated from above:
SMILES | test | system | conditions | Cmax
CONC(=O)/C=C/c1cccc(S(=O)(=O)Nc2ccccc2)c1 |  | patients with moderate liver dysfunction, plasma | intravenous, 400 mg/m^2 belinostat, single 30 min infusion, cycle 1 day -7, mean | 3260 ng/mL
